Results pooled from the literature.
Each numbered part is a random draw from the data of one study; scales do not carry over between parts. Changes are numbered by the printed parent chain.

Series 1
Target: RING finger protein unkempt homolog, zinc fingers 1-6, GST-SBP tag (UNK, Homo sapiens, UniProt Q9C0B0, residues 30-357)
Sequence of UniProt Q9C0B0 (30-357, looked up): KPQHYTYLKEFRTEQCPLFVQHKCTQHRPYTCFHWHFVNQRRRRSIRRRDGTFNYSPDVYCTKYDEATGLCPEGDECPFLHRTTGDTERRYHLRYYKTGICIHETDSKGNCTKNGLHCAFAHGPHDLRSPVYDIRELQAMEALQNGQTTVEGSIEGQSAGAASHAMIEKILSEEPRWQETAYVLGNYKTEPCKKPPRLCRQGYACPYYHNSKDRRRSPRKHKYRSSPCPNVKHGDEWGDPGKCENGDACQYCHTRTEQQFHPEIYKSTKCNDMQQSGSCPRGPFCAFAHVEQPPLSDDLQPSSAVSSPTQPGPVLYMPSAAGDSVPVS
Technique: RNA Bind-n-Seq
Molecule type: RNA
Matrix: in vitro
Tested at: not given
Setting: RNA with constant flanks, ends assumed
Reference: input RNA pool
Direction: higher = stronger binding
| Strand | bound/input enrichment [ratio] |
| --- | --- |
| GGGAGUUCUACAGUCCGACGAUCAGUCCAAAUCACGCAGUGGUGCACGGCAACCUGGCUUGUGUAUACUAUGAGCAAGGCCUGACCGAUCUGGCAAUAGACACCUACAGGCGGGCUAUCGAACUACAACCACAUUUCCCUGAUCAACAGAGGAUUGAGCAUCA | 0.36 |
| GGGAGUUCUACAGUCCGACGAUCUGAGAAUAAUCCUUUUUUUUUCACUAAUGGCAUUGAUGACAUGUUUGAAUCCUGUGUGUUGCAUUCCGAAAAGUAUUCUGAUGACUGUUAUAAACAGUGUGGUGUGAGGCCAUGGACUUCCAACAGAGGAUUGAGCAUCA | 0.402 |
| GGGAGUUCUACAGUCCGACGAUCUACUCGCCCACCUCUCCCAGCUACUCGCCCACCUCUCCCAGCUACUCACCCACUUCCCCCCGCUACUCGCCCACUUCCCCUAGCUACUCGCCAACGUCUCCCAGCUACUCACCGACAUCUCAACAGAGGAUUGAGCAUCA | 0.867 |
| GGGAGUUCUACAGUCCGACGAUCAUUAUGUCUUAUAAUCCUGCAUCACUUCUAUCCUAUCCAGUCAUAUCUAAUGUAGAAAAUCCGUUUCCAGUGAAAGUAAUAUGUAGUGCUUUUAUGAUAUUUGUGUGCAAUAUCCCCUCUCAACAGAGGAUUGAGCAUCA | 1.94 |
| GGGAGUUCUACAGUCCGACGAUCAUAGUAAAAGGGGGUGCUGCAGAGAAAAGUGGUCUGUUGCAUGAAGGAGAUGAAGUUCCCGAGAUUAAUGGCAUUGAAAUUCGGGGGAAAGAUGUCAAUGAGGUUUUUGACUUGUUGUCUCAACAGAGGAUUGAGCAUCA | 0.978 |
| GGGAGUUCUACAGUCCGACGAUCAUAACAAUGCUGGUUCCUGGAGGAGAAGGACCUGAAGUGUGAAUGAGUUUCCUUGACUUACACCCGAUUUUGUUUUGGCUUAUAAUGACAAGAAAAUGGAAUUUUUUUUCCCACUUUCUACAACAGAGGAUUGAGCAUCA | 0.257 |
| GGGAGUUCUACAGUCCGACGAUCCAACAAUACUCAGGGAGGAGACUCCCAUAAUGGAAACUUUGUCAUUCCCCAGAUACAAUGCCGCUGAGCUUGUGGUUCAUAUUCGCAAUAAAUUAUUAACAGGAGCAGAUGGCAAAAACCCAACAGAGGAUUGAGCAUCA | 0.275 |
| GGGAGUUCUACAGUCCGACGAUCGAAGUUCCCCAUUGUCACUGAGAACCACCAAAUUUGACUUUCACAUUUGGUCUCAGAAUUCCGGUUCCUGCCCUGUUGUUUUUCUUUCUUUUUCUUUUUUUUUUUUCUCCCCUCCCCUUUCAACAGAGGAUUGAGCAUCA | 1.86 |
| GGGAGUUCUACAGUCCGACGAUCAAUGGCAAUGGGGGACCUGGUCCCUAUGUGGGGCAAGCUGGCACUGCUACCCUUCCCCGGAACUUCCACUACCCUCCUGAUGGUUAUAGUCGCCACUAUGAAGAUGGUUAUCCAGGUGGCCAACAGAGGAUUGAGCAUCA | 0.184 |
| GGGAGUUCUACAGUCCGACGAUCGAGAAUGUUAUUUAAAGUUGUAUUAUAAUUGCAACCUCCACUAAUUAUUCAGUACUGCCGCAGCAAAGUAUUAUUUGUAAGAAUUUGGUUAUUUUUAUACUUAUAUCCACUCUAAGUCUGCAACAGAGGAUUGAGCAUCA | 0.234 |
| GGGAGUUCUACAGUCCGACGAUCAUCUCCCGGUCCCCCGCCCGCGGCAGACAUGGCGGUGGACUCGUCUAUGGAGCUGCUAUUUUCCGAUACUUUUAAACAUCCGAGCGCUGAGCAAAGUUCUCAUAUAGAUGUGGUUCGUUUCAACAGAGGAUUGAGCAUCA | 0.277 |

Series 2
Target: RNA binding protein fox-1 homolog 2, RRM domain, GST-SBP tag (RBFOX2, Homo sapiens, UniProt O43251-10, residues 100-194)
Technique: RNA Bind-n-Seq
Molecule type: RNA
Matrix: in vitro
Tested at: 365 nM
Setting: natural RNA segment, single round, ends assumed
Reference: no-protein control
Direction: higher = stronger binding
Residues (chain): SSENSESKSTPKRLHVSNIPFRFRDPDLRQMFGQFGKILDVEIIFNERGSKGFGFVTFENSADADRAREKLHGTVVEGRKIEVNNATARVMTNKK
| Strand | RBNS enrichment (R) |
| --- | --- |
| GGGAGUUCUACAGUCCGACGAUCACUAUAUAUAUUUCUAGAAGGGGCUAUGCAUAUUCAAUGUAUUGAGAACCAAAGCAACCACAAAUGCAUAAAUGCAUAAUUUAUGGUCUUCAACCAAGGCCACAUAAUAAUGGAAUUCUCGGGUGCCAA | 0.567 |
| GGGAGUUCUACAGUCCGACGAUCUCUACAUCAAAUGCGGCUGAGGCAUUUUACAGUGGUUUGCCAUUAGCGUGUUCAUUCAGAUAAUGUUUUCUUACUAGGAAUUACAAACUUAAAACAUUUUUCAACCUUUAUGGAAUUCUCGGGUGCCAA | 0.873 |
| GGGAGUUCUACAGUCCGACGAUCAAAAUAACCUCCAAGGACCCUCUGACCCCAUCGACCUGGGCCCUGCCCACACAACAGUCUGAGCAAGAGACCUGCAGCCCCUGUUUCGUGGCAGACAGCAGGUGCCUGGCUGGAAUUCUCGGGUGCCAA | 0.364 |
| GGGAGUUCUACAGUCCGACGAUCAAAGAGAAAGCCUGGAAGGAAAUGUUCCAACUCCUUAGAAGGGUCGUGCAAGCUGCUGUGGGAGGGUAAGCACCCCUCCCAGCACAGAAACCUUUCCUUUGAAUCAAUAAUGGAAUUCUCGGGUGCCAA | 0.44 |
| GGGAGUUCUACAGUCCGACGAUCCUGUUCUACAUAGUGAGUUCCAGGCCAGCCAAGACUACAUAGAGCAAUAAAGCCUGGUCUUUCUGUCUUUUCACAGAAAAUAAUAGUUCCUUUUAGGAUCUAGACAUACGUGGAAUUCUCGGGUGCCAA | 0.288 |
| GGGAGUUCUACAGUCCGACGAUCCUCUUUUUUCCUUCCUCUCCUACAUCUCCCUUUUCCCCCGAUCCAAGUUGUAGAUGGAAUAGAAGCCCUUGUUGCUGUAGAUGUGCGUGCAGUCUGGCAGCCUUAAGCCCUGGAAUUCUCGGGUGCCAA | 2.49 |
| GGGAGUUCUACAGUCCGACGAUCAGGUGGGACCUCUGAGACACUGGUCCCCACAGAGCUGUAAGUGAGAAGAGCAGUUUGUCCACUCUGGGUGCUGCUGAGGGAGCUGUUUGGGAAGAAGCCAUCCCUGGCCAUGGAAUUCUCGGGUGCCAA | 0.859 |
| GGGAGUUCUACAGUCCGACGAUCCACCUCACACCAAGAAUCUUGCCUAACCCUGUCAGAGUGCCUAAUAUCCUGUGGUGAUUAUGUAUAAUGAAACAGUCUUAUUUUGUGCUCUUUGGUUUCUUAAAAGGAAAUGGAAUUCUCGGGUGCCAA | 0.337 |
| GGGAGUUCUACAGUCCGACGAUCAAAUCAUGGACAGUAAAUGGUGACAGAUGUCUGAAGGGGUCUCAAAGAUGCAAGGGAACAUGGGGUCAAAGGGGCCACCCACCACAUCUGAUGAUAUGUUAGUUUUGUUGUGGAAUUCUCGGGUGCCAA | 0.95 |
| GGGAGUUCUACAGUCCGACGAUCUGUGGCUUGUGGCUCAUGCGCCAUUCCUGGUUGUCUGUUGAAUCUUUCUGGCUGCUGGAAUUGGAGAUAGGAUGUUUUGCUUCCCACUGCAGGAGAGCUGCCCCCUUUCAUGGAAUUCUCGGGUGCCAA | 0.269 |
| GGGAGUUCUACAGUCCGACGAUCGUGGACUUCAAAUCCCAGCUUUACCGUCAUCACUGUUCAGUUUUCUUCGAAGGUACGGAUGAGGAGAAAUCUUCUAUGAGCAACUCCGUGCUGUCUGCCUAGGAAUCCUUUGGAAUUCUCGGGUGCCAA | 0.784 |
| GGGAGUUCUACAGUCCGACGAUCCUCUCGGCCCAGCAAGAGAACAAUUCUUUCCGGGAUUGGCUGGCUCAGGUUGGGCGGGGCCGGUUCUAAACGCUCCAAGGGUCAACUCUGUUUCUUGCCUAGCAAACGAAUGGAAUUCUCGGGUGCCAA | 0.219 |

Series 3
Target: Sal-like protein 4, full length isoform B (SALL4, Homo sapiens, UniProt Q9UJQ4-2, residues 1-616)
Technique: universal PBM
Molecule type: double-stranded DNA, one strand shown
Matrix: in vitro
Tested at: not given
Setting: 8-mer, flanks averaged, mean of replicates
Direction: higher = stronger binding
Construct (chain): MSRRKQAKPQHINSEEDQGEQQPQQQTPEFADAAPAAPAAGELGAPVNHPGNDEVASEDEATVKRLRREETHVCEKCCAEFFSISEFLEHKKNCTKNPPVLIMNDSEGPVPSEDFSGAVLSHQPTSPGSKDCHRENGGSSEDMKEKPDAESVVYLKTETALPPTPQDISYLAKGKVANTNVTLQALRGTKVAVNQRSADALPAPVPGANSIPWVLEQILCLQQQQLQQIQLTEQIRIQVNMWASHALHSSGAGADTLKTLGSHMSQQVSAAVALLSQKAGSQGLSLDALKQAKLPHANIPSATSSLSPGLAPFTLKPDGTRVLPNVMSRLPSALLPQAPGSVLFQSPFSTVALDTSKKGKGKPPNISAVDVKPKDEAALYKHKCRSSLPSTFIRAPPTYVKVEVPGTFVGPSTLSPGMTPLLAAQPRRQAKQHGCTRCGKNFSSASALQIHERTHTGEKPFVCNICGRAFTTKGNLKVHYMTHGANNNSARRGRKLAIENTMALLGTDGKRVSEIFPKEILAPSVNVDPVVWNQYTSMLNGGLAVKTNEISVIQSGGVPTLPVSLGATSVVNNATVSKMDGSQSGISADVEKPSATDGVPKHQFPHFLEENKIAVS
| Strand | E-score |
| --- | --- |
| TGGGTCAA | -0.131 |
| CTGAGAAC | -0.114 |
| GCATCTAC | 0.0326 |
| ACCTTGCC | -0.106 |
| ACGGAAGC | -0.099 |
| CCTAGGTA | -0.0192 |
| ACGCGAGT | -0.127 |
| GGAGGTAC | -0.185 |
| AGCTGACT | -0.161 |
| AGGCGTTA | 0.0545 |
| AGCTGAGC | -0.314 |
| GCTTCAAA | 0.145 |
| ATGTCTTG | 0.124 |
| AGGGATTA | 0.116 |
| GCCATGGC | -0.215 |
| AGTACGAG | 0.0991 |
| CCCGCGAG | -0.207 |
| CAGGGCAC | -0.307 |
| AACCCAAC | -0.0689 |
| GTCTCTCA | -0.163 |
| CAAGCGTC | -0.21 |
| GTCTAGGA | 0.0551 |
| GGCGGAAA | 0.0178 |
| ACGTTACG | 0.145 |
| AACAGCGC | -0.177 |

Series 4
Target: CCNE1, cyclin fold, Cln2 fusion (human)
Technique: yeast growth competition, sequencing
Matrix: yeast
Setting: strong parent motif
Reference: not given
Direction: higher = stronger binding
Starting sequence: CDKN1B docking peptide (human); PSACRNLFGPVDH
| Change | normalised enrichment score |
| --- | --- |
| A3V | 5.74 |
| D12C | 2.67 |
| R5G | 0.271 |
| N6A | 2.14 |
| S2K | 3 |
| R5T | 0.324 |
| V11F | 4 |
| L7R | -0.0299 |
| N6T | 1.74 |
| V11D | 2.55 |
| R5P | -0.176 |
| L7T | -0.0498 |
| A3L | 1.15 |
| D12L | 2.82 |
| P1R | 3.44 |
| R5I | 0.316 |
| D12Q | 3.13 |
| H13R | 3.51 |
| L7W | 0.0403 |
| V11E | 2.64 |
| V11H | 3.6 |
| P10T | 3.74 |
| C4N | 0.609 |
| N6I | 3.96 |
| P10W | 1.67 |

Repeated from above (series 4):
| Change | normalised enrichment score |
| --- | --- |
| A3L | 1.15 |
| D12L | 2.82 |
| P1R | 3.44 |
| R5I | 0.316 |
| D12Q | 3.13 |
| H13R | 3.51 |
| L7W | 0.0403 |
| V11E | 2.64 |
| V11H | 3.6 |
